Measurements pooled from the literature.
Every numbered part comes from another study and shows a few of its results, in no order. Changes are numbered by the printed parent chain.

Sample 1
Target: Sal-like protein 4, full length isoform A (SALL4, Homo sapiens, UniProt Q9UJQ4, residues 1-1053)
Sequence of UniProt Q9UJQ4 (whole entry, looked up): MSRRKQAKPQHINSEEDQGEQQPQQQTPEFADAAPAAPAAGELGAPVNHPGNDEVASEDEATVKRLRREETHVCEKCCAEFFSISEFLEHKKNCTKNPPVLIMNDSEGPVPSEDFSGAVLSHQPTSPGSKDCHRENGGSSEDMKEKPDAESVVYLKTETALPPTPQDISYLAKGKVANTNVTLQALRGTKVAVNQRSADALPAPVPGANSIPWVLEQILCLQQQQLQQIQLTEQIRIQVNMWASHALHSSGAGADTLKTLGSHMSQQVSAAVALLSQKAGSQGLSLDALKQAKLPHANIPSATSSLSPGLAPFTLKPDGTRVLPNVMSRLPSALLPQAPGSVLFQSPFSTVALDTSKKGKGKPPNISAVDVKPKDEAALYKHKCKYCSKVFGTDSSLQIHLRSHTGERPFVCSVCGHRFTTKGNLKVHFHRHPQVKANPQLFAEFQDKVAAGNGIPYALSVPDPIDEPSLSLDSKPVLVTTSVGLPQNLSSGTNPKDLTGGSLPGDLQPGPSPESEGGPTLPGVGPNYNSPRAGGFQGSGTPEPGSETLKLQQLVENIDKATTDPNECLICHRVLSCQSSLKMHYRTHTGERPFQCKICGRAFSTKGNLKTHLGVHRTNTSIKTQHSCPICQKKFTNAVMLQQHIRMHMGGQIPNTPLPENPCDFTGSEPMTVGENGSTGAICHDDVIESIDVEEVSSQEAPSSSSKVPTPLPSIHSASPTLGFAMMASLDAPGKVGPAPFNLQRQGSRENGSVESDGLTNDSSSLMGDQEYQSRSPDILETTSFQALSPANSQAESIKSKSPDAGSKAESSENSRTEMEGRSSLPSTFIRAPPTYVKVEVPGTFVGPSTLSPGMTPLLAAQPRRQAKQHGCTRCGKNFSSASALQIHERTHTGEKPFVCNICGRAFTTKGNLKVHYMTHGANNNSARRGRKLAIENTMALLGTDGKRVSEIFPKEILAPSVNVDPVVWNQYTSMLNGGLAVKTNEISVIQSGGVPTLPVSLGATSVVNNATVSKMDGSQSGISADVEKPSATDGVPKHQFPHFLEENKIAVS
Technique: universal PBM
Form: double-stranded DNA, one strand shown
Sample: in vitro
Concentration: 600 nM
Setting: 8-mer, flanks averaged, mean of replicates
Direction: higher = stronger binding
Endpoint: E-score
AAAATGTA: 0.295
CCAGCCCG: -0.388
AGTTAGCC: -0.0723
GACAAAAA: 0.216
CTACACGC: -0.174
GCGGTAGA: -0.156
CACTTGAC: -0.0908
AAAACGCC: -0.0593
TGTGCCAA: 0.196
AACTTACC: -0.0246
TGGCGAAA: -0.00941
AAACTGGC: -0.24
AGCCCGGC: -0.41
ACTTTAAA: 0.334
CCTCGAAC: -0.197
TCGCCAGA: -0.051
GCATCGGC: -0.272
GATCGAGA: -0.055

Sample 2
Target: TAR DNA-binding protein 43, full length, His tag (TARDBP, Homo sapiens, UniProt Q13148, residues 1-414)
Technique: RNA Bind-n-Seq
Form: RNA
Sample: in vitro
Concentration: 20 nM
Setting: 6-mer, flanks averaged, single round
Added: 150 mM LiCl
Baseline: input library
Direction: higher = stronger binding
Endpoint: 6-mer enrichment (R)
AGCAAG: 0.903
GGAGUA: 1.06
UCCCCA: 1.14
AUGGUG: 1.34
UACGAC: 0.809
UUGCCG: 0.949
GUCGGC: 1.12
GGGGUA: 1.26
AUAAAA: 0.945
AAGGCC: 0.894
AAUUUG: 1.11
GCCGAA: 0.866
GUGGAC: 1.1
UGGCUA: 0.93
CAUGUU: 1.05
ACGCUC: 0.82

Sample 3
Substance: PhoQ, residues 284 288 289 292 302 303 TYGVAM
Technique: Sort-seq
Refers to: YFP reporter
Sample: E. coli
Setting: PhoQ-PhoP variant library
Added: 10 µM Mg2+
Baseline: high Mg2+ state
Direction: higher = stronger signaling
Endpoint: fold induction
PhoP, residues 12 14 15 18 19 HHYTI (Escherichia coli, UniProt P23836): 26.7
PhoP, residues 12 14 15 18 19 SFCSL (Escherichia coli, UniProt P23836): 18.7
PhoP, residues 12 14 15 18 19 AYFRS (Escherichia coli, UniProt P23836): 12

Sample 4
Target: CEBPE, bZIP domain (human)
Technique: DHFR protein complementation
Sample: yeast
Setting: single substitutions, most at no-binding floor
Baseline: wild-type JUN-FOS pair
Direction: higher = stronger binding
Endpoint: binding fitness
Starting sequence: JUN, bZIP domain (human); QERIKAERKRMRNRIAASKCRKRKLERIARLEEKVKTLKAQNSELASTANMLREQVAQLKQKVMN; partner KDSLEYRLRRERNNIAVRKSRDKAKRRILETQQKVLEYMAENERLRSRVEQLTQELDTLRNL
R53N: -1.24 natural log
L52A: -1.52 natural log
A29P: -1.46 natural log
Q41K: -1.32 natural log
K34C: -1.26 natural log
T37L: -0.944 natural log
A57E: -0.847 natural log
T48H: -1.14 natural log
Q55W: -1.29 natural log
E44Q: -1.15 natural log
A49N: -1.48 natural log
Q58P: -1.44 natural log
R53G: -1.09 natural log
T37Q: -0.872 natural log
L52W: -1.51 natural log
A46D: -1.33 natural log
T37M: -0.366 natural log
L45N: -1.49 natural log
S43Q: -0.925 natural log
V35Y: -1.31 natural log
A29G: -1.26 natural log
E33H: -1.28 natural log
E32G: -1.39 natural log

Sample 5
Target: Histone acetyltransferase KAT6A, winged helix 1, GST fusion (KAT6A, Homo sapiens, UniProt Q92794, residues 1-85)
Technique: protein binding microarray
Form: double-stranded DNA, one strand shown
Sample: in vitro
Concentration: not given
Setting: 8-mer, flanks averaged, mean of 2 arrays, mostly near background
Baseline: not given
Direction: higher = stronger binding
Endpoint: E-score
Target sequence (chain): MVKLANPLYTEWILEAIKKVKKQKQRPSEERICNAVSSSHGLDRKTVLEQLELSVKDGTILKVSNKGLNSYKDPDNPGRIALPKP
CTGGTTTA: -0.0844
GGGGACAC: -0.0192
CTGCCGCA: 0.206
AATGACTA: -0.23
CTGTGCGC: 0.354
AGTTGACC: -0.0248
ATCCTCCC: -0.0614
CAAAGGCC: 0.0539
AGGCCTAT: -0.226
CGAAAGCA: -0.139
CTTGCATC: -0.156
GAGCTCCA: -0.132
ACCGTGGG: 0.118
ACTTGCAC: -0.191
AGGGTGTA: -0.208
CGGCCCAG: 0.295
ATGCGCGA: 0.359
GGGCTTTA: 0.034
CCTTCGAC: -0.104
ACTAAGTG: -0.261
CTTATGAC: -0.215
GAGCCACA: -0.174
CATCCCAG: -0.207
GTGGCCAC: -0.188
CTACTAAA: 0.0542

Sample 6
Target: Interferon regulatory factor 7, full length, phosphomimetic (IRF7, Homo sapiens, UniProt Q92985, residues 1-503, S471D/S472D/S475D/S476D/S477D/S483D/S484D/S487D)
Sequence of UniProt Q92985 (whole entry, unmodified, looked up): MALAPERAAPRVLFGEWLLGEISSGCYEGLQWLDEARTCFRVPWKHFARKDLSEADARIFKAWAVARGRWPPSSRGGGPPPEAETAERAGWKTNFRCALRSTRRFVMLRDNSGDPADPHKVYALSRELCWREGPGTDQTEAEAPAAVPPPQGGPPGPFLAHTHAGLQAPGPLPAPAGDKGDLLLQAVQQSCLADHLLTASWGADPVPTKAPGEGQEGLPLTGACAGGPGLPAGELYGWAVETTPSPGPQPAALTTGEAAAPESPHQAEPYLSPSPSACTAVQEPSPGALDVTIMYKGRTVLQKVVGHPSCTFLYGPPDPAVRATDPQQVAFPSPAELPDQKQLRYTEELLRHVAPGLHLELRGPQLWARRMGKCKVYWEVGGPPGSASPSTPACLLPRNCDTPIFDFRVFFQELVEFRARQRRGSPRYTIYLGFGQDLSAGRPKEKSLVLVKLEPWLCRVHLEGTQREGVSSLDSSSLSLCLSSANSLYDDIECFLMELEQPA
Technique: protein-binding microarray
Form: double-stranded DNA, one strand shown
Sample: in vitro
Concentration: 2200 nM top
Setting: 60-bp whole probe
Added: salmon DNA 0.4 mg/ml
Baseline: random background probes
Direction: higher = stronger binding
Endpoint: fitted relative affinity
All sequences stand within: GCCTAGCAC … GTCTTGATTCGCTTGACGCTGCTG
TCAAGACTCATAATGGCTAGGTGCTAG: -0.322 z-score
TTAGGACTCCTTTTCCTTTAGTGCTAG: 1.53 z-score
GACGGACTGGGGAATCGGGACGTGCTA: -0.781 z-score
GACGTTTTCCTTTTCCTGACGTGCTAG: 7.39 z-score
AACGATTTCGGGACTGGAGACGTGCTA: 1.37 z-score
TCCCCTCTAGGTCTTCTGAAGTGCTAG: 0.33 z-score
GACGGTATCGGTATCGGGTCGTGCTAG: 0.583 z-score
TCAGATTTCAGTCTCGATTAGTGCTAG: 1.18 z-score
GAGGATTTCAGACTGGAGACGTGCTAG: -0.228 z-score
TTGGGTTTCGGTCTCGGTTAGTGCTAG: 5.61 z-score
GACGGTTTCGACTAACGGGACGTGCTA: 3.31 z-score
TAAGAACTGAGTTTCGATTAGTGCTAG: 3.46 z-score
TCAAAGATTCCTCTCACACTGTGCTAG: 0.565 z-score
GACGGTATCCGTCTCGGGACGTGCTAG: -0.136 z-score
TTAGATCTCAGTCTCGATCAGTGCTAG: 0.165 z-score
AACGGACTGGGGTTTCGGGACGTGCTA: 0.772 z-score
TCAGTCTTCCCTTTTAAACTGTGCTAG: 1.92 z-score
GAAGATTTCAGTTTCGAGACGTGCTAG: 5.42 z-score
GACGATATCGGGTATTGAGACGTGCTA: 0.265 z-score
GACGGTATCGATACTGGGGACGTGCTA: 0.187 z-score
CTGCTAGGGCACACAAGTCAGTGCTAG: -0.908 z-score
TTAGGACTGGACTAACGGTTAGTGCTA: -0.811 z-score
GACTAACTGGGGTATCGAGACGTGCTA: 0.0213 z-score

Sample 7
Target: CCNF, cyclin fold, Cln2 fusion (human)
Technique: yeast growth competition, sequencing
Sample: yeast
Setting: strong parent motif
Baseline: not given
Direction: higher = stronger binding
Endpoint: normalised enrichment score
Starting sequence: ORC1 docking peptide (human); PRARKRLELGNLG
R4K: 2
R6I: 1.61
L12E: 3.77
K5Y: 1.12
E8G: 1.5
N11E: 4.15
L12H: 3.68
L12W: 5.04
E8H: 1.67
L12Q: 2.44
G10D: 5.47
R4F: 1.91
R2H: 3.67
A3E: 1.85
E8W: 3.52
G13V: 3.65
L9N: 1.04
R2F: 1.74
L7Y: 0.762
G13R: 3.1
R2L: 1.97
G10N: 2.41
L12P: 4.1
L7D: 1.15
G13M: 5.57

For quick reference, copied from above (sample 7):
G13V: 3.65
L9N: 1.04
R2F: 1.74
L7Y: 0.762
G13R: 3.1
R2L: 1.97
G10N: 2.41
L12P: 4.1
